Measurements collected from several papers.
Lines come from different studies, so protocols differ. ± marks the error that the study gave.
HSP90AB1: Heat shock protein HSP 90-beta (HSP90AB1, Homo sapiens, UniProt P08238)
UniProt P08238, sequence (whole entry, looked up): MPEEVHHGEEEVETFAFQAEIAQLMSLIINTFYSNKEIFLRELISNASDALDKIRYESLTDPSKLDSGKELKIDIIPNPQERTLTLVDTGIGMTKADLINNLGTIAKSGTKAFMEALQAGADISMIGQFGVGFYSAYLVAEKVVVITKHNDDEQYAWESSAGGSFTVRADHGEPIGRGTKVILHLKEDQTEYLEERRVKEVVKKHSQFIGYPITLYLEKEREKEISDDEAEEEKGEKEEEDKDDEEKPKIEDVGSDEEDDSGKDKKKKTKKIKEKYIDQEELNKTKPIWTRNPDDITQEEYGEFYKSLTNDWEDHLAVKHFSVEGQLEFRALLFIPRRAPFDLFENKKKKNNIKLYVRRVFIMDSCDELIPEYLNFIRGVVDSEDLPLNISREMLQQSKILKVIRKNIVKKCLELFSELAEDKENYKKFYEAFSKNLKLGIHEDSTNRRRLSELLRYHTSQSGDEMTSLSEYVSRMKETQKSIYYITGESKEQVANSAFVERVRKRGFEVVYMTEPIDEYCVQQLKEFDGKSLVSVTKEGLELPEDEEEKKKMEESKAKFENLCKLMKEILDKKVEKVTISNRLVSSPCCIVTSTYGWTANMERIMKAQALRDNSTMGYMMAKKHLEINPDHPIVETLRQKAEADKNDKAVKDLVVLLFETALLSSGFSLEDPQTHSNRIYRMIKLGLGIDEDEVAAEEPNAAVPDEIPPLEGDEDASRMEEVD
UniProt P31946, sequence (whole entry, looked up): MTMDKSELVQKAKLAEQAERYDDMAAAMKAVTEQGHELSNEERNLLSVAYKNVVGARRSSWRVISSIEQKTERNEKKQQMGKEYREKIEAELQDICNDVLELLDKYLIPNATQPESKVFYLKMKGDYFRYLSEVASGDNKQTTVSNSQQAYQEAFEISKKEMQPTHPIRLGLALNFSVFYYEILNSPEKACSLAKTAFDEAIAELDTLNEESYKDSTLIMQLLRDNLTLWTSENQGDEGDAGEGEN
UniProt A0A0D1DWZ5, sequence (whole entry, looked up): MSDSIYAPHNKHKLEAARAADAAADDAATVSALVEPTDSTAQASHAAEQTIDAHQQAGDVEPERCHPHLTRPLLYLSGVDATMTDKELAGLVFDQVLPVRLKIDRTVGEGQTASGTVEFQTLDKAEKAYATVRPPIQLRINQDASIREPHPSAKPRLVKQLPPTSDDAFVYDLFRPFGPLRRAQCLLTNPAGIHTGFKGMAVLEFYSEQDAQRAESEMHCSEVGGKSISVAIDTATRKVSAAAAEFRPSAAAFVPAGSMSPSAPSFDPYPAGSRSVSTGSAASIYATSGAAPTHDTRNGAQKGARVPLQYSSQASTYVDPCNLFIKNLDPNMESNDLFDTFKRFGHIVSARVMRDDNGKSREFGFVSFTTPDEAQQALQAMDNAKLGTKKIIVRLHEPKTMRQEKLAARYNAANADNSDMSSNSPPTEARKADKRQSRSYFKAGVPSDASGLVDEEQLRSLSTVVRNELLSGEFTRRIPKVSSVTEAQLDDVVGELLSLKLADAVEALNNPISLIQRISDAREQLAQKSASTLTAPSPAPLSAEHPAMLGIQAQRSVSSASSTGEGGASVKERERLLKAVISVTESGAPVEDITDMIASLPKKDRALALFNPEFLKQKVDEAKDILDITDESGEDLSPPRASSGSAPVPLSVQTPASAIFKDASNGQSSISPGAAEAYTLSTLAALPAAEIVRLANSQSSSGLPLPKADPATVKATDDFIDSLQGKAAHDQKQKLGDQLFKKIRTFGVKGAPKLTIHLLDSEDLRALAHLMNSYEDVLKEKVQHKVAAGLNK
UniProt Q07817, sequence (whole entry, looked up): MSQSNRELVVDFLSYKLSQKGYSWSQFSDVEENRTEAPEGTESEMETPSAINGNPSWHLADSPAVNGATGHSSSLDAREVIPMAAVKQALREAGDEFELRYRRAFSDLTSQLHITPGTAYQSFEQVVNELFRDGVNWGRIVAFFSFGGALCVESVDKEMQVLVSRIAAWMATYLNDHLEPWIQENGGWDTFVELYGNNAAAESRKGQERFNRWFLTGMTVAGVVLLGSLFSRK
UniProt Q9BYT3, sequence (whole entry, looked up): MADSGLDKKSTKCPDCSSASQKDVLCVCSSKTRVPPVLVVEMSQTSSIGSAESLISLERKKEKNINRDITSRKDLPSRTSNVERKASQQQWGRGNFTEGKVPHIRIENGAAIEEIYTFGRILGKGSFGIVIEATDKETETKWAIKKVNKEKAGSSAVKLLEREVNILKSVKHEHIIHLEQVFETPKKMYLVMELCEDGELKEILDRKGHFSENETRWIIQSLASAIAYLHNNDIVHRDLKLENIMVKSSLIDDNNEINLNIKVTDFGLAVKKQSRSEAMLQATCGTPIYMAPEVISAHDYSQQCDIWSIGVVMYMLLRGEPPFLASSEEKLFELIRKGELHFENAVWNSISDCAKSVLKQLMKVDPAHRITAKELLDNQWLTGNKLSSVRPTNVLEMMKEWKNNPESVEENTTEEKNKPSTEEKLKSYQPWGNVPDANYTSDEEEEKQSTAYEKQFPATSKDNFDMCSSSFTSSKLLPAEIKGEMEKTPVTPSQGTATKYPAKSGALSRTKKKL
UniProt Q15046, sequence (whole entry, looked up): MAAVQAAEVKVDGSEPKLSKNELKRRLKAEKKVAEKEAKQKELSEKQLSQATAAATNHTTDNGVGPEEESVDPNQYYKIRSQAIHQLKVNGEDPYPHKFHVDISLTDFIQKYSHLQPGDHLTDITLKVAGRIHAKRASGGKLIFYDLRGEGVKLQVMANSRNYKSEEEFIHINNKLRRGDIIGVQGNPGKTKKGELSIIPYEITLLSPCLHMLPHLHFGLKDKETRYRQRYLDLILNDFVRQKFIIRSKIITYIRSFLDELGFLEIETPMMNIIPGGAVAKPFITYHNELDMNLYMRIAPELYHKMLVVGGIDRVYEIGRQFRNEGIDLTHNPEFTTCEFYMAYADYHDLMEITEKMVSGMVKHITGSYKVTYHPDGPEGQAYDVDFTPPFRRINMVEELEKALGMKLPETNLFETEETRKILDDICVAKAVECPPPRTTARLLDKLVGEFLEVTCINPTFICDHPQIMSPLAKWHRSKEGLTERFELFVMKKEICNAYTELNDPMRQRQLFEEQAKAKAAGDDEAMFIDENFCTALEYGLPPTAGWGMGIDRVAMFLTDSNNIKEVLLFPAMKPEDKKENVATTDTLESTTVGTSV
UniProt P33913, sequence (whole entry, unmodified, looked up): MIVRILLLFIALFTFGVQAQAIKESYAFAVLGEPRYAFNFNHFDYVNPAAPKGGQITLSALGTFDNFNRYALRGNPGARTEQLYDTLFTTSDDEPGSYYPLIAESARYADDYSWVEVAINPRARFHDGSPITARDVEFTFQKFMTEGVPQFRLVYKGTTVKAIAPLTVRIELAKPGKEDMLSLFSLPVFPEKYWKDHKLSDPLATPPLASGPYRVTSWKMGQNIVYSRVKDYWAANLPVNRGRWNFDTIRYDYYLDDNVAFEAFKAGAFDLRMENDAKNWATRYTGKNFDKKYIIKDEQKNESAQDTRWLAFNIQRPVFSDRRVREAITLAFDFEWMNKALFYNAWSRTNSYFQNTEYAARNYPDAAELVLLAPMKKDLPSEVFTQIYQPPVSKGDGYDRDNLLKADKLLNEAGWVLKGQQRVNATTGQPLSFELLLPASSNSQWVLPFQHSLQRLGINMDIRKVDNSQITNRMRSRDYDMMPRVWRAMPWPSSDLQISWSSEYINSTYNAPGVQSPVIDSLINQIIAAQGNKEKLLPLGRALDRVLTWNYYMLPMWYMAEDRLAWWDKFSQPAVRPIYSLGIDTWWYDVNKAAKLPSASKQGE

SMILES | target | assay | system | setting | Kd [µM]
CCCc1cc2cc(-n3cc(C)c4c3CC(C)(C)CC4=O)cc(N3CCC(O)CC3)c2c(=O)[nH]1 | HSP90AB1 | fluorescence polarization | – | 24 h, 4 °C, together with: FITC-geldanamycin tracer | 0.575
CCCC[C@@H]1NC(=O)[C@H](Cc2ccc(F)cc2)NC(=O)[C@H](CCC(N)=O)NC(=O)[C@H](Cc2ccc(O)cc2)NC(=O)[C@H](Cc2c[nH]c3ccccc23)NC(=O)[C@@H](C)NC(=O)[C@H](CCC(=O)N[C@@H](CCCCN)C(N)=O)NC(=O)[C@@H](C)NC(=O)[C@@H](C)NC(=O)[C@@H](C)NC1=O | Lysine--tRNA ligase (KARS1, Homo sapiens, UniProt Q15046) | binding | – | – | 1.3
CSCC[C@H](NC(=O)CNC(=O)[C@H](CCCNC(=N)N)NC(=O)[C@H](C)NC(=O)[C@@H](NC(=O)[C@H](CCC(N)=O)NC(=O)[C@H](Cc1ccc(OP(=O)(O)O)cc1)NC(=O)[C@H](C)NC(=O)[C@H](CS)NC(=O)[C@H](CO)NC(=O)[C@@H](NC(=O)[C@H](CC(C)C)NC(=O)[C@H](CC(=O)O)NC(=O)[C@H](CCCCN)NC(=O)[C@H](CO)NC(=O)[C@H](CO)NC(=O)c1ccc2c(c1)C(=O)OC21c2ccc(N(C)C)cc2Oc2cc(N(C)C)ccc21)C(C)C)C(C)C)C(=O)N[C@@H](CCC(=O)O)C(=O)N[C@@H](CC(=O)O)C(=O)O | Tyrosine-protein kinase SYK, SH2 domains (SYK, Homo sapiens, UniProt P43405) | binding | – | – | 0.909
CC(C)[C@H](NC(=O)[C@H](Cc1ccccc1)NC(=O)[C@H](CC(=O)O)NC(=O)[C@H](CC(=O)O)NC(=O)[C@H](CCC(N)=O)NC(=O)[C@H](CC(=O)O)NC(=O)[C@H](CCC(=O)O)NC(=O)[C@H](CCC(=O)O)NC(=O)[C@H](CCC(N)=O)NC(=O)[C@H](CC(=O)O)NC(=O)[C@H](C)NC(=O)[C@H](C)NC(=O)[C@@H](N)CCC(=O)O)C(=O)N[C@@H](Cc1ccc(O)cc1)C(=O)N1CCC[C@H]1C(=O)NCC(=O)N[C@@H](C)C(=O)N[C@@H](CC(=O)O)C(=O)O | RNA-binding protein RRM4 (RRM4, Mycosarcoma maydis, UniProt A0A0D1DWZ5) | binding, isothermal titration calorimetry | Ustilago maydis | pH 8.0, 25 °C, together with: MLLE domain 100 µM | 15.8
CC[C@H](C)[C@H](NC(=O)CNC(=O)CNC(=O)CNC(=O)CNC(=O)CNC(=O)[C@@H](NC(=O)[C@H](CCSC)NC(=O)[C@H](CC(C)C)NC(=O)[C@H](CC(N)=O)NC(=O)[C@H](CC(C)C)NC(=O)[C@@H](NC(=O)[C@H](COP(=O)(O)O)NC(=O)[C@H](CCC(N)=O)NC(=O)[C@H](CCCNC(=N)N)NC(=O)[C@H](CCCNC(=N)N)NC(=O)[C@H](CCCNC(=N)N)NC(=O)[C@H](C)NC(=O)[C@H](CCC(N)=O)NC(C)=O)C(C)C)[C@@H](C)O)C(=O)N[C@@H](Cc1ccc(O)cc1)C(=O)N[C@@H](CO)C(=O)N[C@@H](CCCNC(=N)N)C(=O)N[C@@H](CCCNC(=N)N)C(=O)N[C@@H](CC(C)C)C(=O)N[C@@H](COP(=O)(O)O)C(=O)N[C@@H](CCC(N)=O)C(=O)N[C@@H](CCC(=O)O)C(=O)N[C@H](C(=O)NCC(=O)N[C@@H](CC(C)C)C(=O)N[C@@H](CCC(=O)O)C(N)=O)[C@@H](C)O | 14-3-3 protein beta/alpha (Homo sapiens, UniProt P31946) | binding, ITC | – | pH 7.4 | 13
CSCC[C@H](NC=O)C(=O)N[C@@H](CCCNC(=N)N)C(=O)N[C@H](C(=O)NCC(=O)N[C@@H](CC(N)=O)C(=O)N[C@@H](C)C(=O)N[C@@H](CC(N)=O)C(=O)NCC(=O)NCC(=O)N[C@@H](CCCCNC(=S)Nc1ccc2c(c1)C(=O)OC21c2ccc(O)cc2Oc2cc(O)ccc21)C(=O)O)[C@@H](C)O | Uncharacterized protein YejA (yejA, Escherichia coli, UniProt P33913, Y509F) | binding, fluorescence polarisation | – | YejA variant Y491F | 11.3 ± 0.36
C=C1NC(=O)C(=C)NC(=O)[C@H](CCCCN)NC(=O)[C@H](CC(C)C)NC(=O)[C@H]([C@@H](C)O)NC(=O)[C@H](CCCCN)NC(=O)[C@H](Cc2ccc(O)cc2)NC(=O)[C@H]([C@@H](C)CC)NC(=O)[C@H](Cc2ccccc2)NC(=O)CNC(=O)[C@H](Cc2c[nH]c3ccccc23)NC(=O)c2ccc(-c3nc(C(=O)OC)cs3)nc2-c2csc(n2)C(=C)NC(=O)CNC1=O | TNIK (Homo sapiens, UniProt Q9UKE5) | binding, SPR | – | – | 0.006
O=C(N[C@@H]1c2ccccc2C[C@H]1N1CCCC1)c1ccc(-c2ccnc3[nH]ccc23)nc1 | STK33 (Homo sapiens, UniProt Q9BYT3) | binding, competition with immobilised ligand | – | – | 3
CCCc1cc2cc(-n3nc(C4CC4)c4c3CC(C)(C)CC4=O)cc(N3CCC(O)CC3)c2c(=O)[nH]1 | HSP90AB1 | fluorescence polarization | – | 24 h, 4 °C, together with: FITC-geldanamycin tracer | 0.785
CC[C@H](C)[C@H](NC(=O)[C@H](CCC(=O)O)NC(=O)[C@H](CCCNC(=N)N)NC(=O)[C@H](C)NC(=O)[C@H](Cc1c[nH]c2ccccc12)NC(=O)[C@H](CCC(N)=O)NC(=O)[C@H](CCC(=O)O)NC(=O)[C@H](CCC(=O)O)NC(=O)[C@H](CCC(=O)O)NC(=O)CNC(=O)[C@H](CCCNC(=N)N)NC(=O)CCCCCNC(=O)CCNC(=S)Nc1ccc2c(c1)C(=O)OC21c2ccc(O)cc2Oc2cc(O)ccc21)C(=O)NCC(=O)N[C@@H](C)C(=O)N[C@@H](CCC(N)=O)C(=O)N[C@@H](CC(C)C)C(=O)N[C@@H](CCCNC(=N)N)C(=O)N[C@@H](CCCNC(=N)N)C(=O)N[C@@H](CCSC)C(=O)N[C@@H](C)C(=O)N[C@@H](CC(=O)O)C(=O)N[C@@H](CC(=O)O)C(=O)N[C@@H](CC(C)C)C(=O)N[C@@H](CC(N)=O)C(=O)O | BCL2L1 (Homo sapiens, UniProt Q07817) | binding, fluorescence polarization | – | together with: fluorescein-labelled BH3 peptide | 0.103
